Published values pooled from the literature.
Every numbered part comes from another study and shows a few of its results, in no order. Changes are numbered by the printed parent chain.

Set 1 — technique: RNAcompete; form: RNA; sample: in vitro; tested at: 20 nM; setting: 7-mer, probes averaged, single round; relative to: mean of 7-mers; direction: higher = stronger binding
Target: PABPC1L2, full length, GST fusion (mouse, UniProt A0ABA7IW68)
Residues (chain): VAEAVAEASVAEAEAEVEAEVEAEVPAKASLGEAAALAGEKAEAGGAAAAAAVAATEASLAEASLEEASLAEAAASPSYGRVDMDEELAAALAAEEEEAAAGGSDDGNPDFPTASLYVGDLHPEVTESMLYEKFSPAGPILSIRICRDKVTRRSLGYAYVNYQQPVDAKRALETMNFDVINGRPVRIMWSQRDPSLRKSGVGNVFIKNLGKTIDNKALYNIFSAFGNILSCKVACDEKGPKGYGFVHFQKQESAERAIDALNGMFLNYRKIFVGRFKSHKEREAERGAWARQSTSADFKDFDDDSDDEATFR
Sequence | 7-mer Z-score
GAGACGA | 0.309
CGGGAUG | 0.12
GGCGCGU | -0.0953
UUUCCCC | -0.418
CGCACUG | -0.05
UGCGCAA | 0.314
AGCCGCC | -0.36
GCGCCCC | -0.396

Set 2 — target: vanadate, free oxyanion; technique: microfluidic competitive inhibition; sample: in vitro, cell-free expressed; tested at: not given; direction: lower = stronger binding
Setting: derived from inhibition constants, unchanged parent 676 nM
Starting sequence: PafA, mature enzyme, eGFP fusion (Elizabethkingia meningoseptica, UniProt Q9KJX5); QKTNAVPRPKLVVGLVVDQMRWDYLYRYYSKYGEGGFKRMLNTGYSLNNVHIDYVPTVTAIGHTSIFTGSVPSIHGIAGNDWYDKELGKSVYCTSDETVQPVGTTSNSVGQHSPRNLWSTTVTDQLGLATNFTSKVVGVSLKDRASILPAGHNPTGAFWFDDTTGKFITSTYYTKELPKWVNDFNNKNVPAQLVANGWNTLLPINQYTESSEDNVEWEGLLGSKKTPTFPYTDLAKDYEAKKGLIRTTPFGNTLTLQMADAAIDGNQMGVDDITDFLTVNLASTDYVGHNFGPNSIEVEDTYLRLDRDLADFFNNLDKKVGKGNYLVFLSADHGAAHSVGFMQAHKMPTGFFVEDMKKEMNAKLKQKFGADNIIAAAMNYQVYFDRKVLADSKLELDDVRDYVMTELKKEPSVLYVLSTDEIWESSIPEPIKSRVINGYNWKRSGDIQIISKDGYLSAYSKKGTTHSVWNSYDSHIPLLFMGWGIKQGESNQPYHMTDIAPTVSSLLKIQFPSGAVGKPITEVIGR
Change | oxyanion analog dissociation constant
P203V | 758 nM
L128G | 547 nM
I524V | 728 nM
Q100V | 658 nM
M268G | 1.37 µM

Set 3 — target: CCNE1, cyclin fold, Cln2 fusion (human); technique: yeast growth competition, sequencing; sample: yeast; setting: strong parent motif; relative to: not given; direction: higher = stronger binding
Starting sequence: viral docking peptide; YKVKRRLVFGADD; partner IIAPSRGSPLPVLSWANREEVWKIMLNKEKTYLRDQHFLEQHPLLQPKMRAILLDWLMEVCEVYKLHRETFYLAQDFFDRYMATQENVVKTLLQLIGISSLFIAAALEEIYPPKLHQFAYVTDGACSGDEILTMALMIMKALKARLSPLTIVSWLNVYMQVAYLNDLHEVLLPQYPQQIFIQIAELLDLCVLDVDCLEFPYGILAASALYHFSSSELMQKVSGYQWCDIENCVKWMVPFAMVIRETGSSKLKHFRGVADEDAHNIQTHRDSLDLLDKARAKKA
Change | normalised enrichment score
YKVKRELVFGADD [R6E] | 1.65
YKVKRRLVFGAKD [D12K] | 3.63
YKVKRRLVSGADD [F9S] | 0.188
YKVKRRLDFGADD [V8D] | 7.13
YKVKRDLVFGADD [R6D] | 0.0796
YKVKRRLVFGAAD [D12A] | 5.19
YKVIRRLVFGADD [K4I] | 3.05
YKVKRRLVFVADD [G10V] | 5.05
YKVKRRLVFGAWD [D12W] | 4.07
YKVKARAVFGADD [R5A L7A] | 0.0808
YKVKRQLVFGADD [R6Q] | 5.1
YKVKRRLVFGAHD [D12H] | 4.66
YKVKRRLVFGHDD [A11H] | 6.19
YKVKRRLVFGLDD [A11L] | 6.08
YKVKRRLVFRADD [G10R] | 4.11

Set 4 — target: CRIPT, C-terminal peptide; technique: DHFR complementation, deep sequencing; sample: yeast; relative to: wild type; direction: higher = weaker binding
Setting: single substitutions, model-inferred values
Starting sequence: ERBIN, PDZ domain 1 (human); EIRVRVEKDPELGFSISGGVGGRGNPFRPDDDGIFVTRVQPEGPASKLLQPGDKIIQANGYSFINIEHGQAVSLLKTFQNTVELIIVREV; partner TKNYKQTSV
Change | binding free energy change
T37P | 0.223 kcal/mol
D31G | 1.13 kcal/mol
S73R | 0.0643 kcal/mol
E7Q | -0.172 kcal/mol
G24V | 1.14 kcal/mol
V82F | 1.58 kcal/mol
G19K | 1.68 kcal/mol
V72S | 0.779 kcal/mol

A few entries again (set 4):
Change | binding free energy change
V82F | 1.58 kcal/mol
E7Q | -0.172 kcal/mol
V72S | 0.779 kcal/mol
G24V | 1.14 kcal/mol
D31G | 1.13 kcal/mol
